Measurements gathered from unrelated publications.
Each line is one published result; not all experiments were run side by side. Several values in a cell are separate wells, animals, samples, runs or records. Numbers after ± are the reported error. In brackets after ≈: the same amount, converted by molar mass.
Organism: Staphylococcus aureus

For `C/C(=C\C(=O)OCCCCCCCCC(=O)O)C[C@@H]1OC[C@H](C[C@@H]2O[C@H]2[C@@H](C)[C@H](C)O)[C@@H](O)[C@H]1O`, “decrease in bacterial count” read 1.5 log10 units (USA300, mouse, skin wound infection, wound tissue; dose not given, day 14).
`CO[C@H]1[C@H](O[C@H]([C@H]2O[C@@H](n3ccc(=O)[nH]c3=O)[C@H](O)[C@@H]2O)[C@H](NCCCNC(=O)[C@@H](NC(=O)[C@@H](NC(=O)N[C@H](C(=O)O)C(C)C)[C@@H]2CCN=C(N)N2)[C@@H](O)C(C)C)C(=O)O)O[C@H](CN)[C@H]1O` gave an MIC90 of over 35 µg/mL (resazurin microplate; 71080 (NR-46418)).
With `O=C(/C=C/c1ccc(O)c(O)c1)O[C@@H]1C[C@@](O)(C(=O)O)C[C@@H](O)[C@@H]1O` the IC50 was over 100 µM (bacterial growth; ATCC 29213; 24 h).
`CC1(C)S[C@@H]2[C@H](NC(=O)[C@H](N)c3ccccc3)C(=O)N2[C@H]1C(=O)O` — result for “inhibition zone diameter”: 11 mm (CGMCC 1.9; concentration not given, 18 h, 37 °C).
With `C#CCCCCCCCCCCCC(O)CC(O)CO` (stereo not drawn) the IC50 was 86.4 µg/mL (growth; ATCC 33591 methicillin-resistant).
The IC50 of `O=C(/C=C/c1ccc(O)c(O)c1)O[C@H]1[C@H](O)C[C@](O)(C(=O)O)C[C@H]1O` is reported as over 100 µM (bacterial growth; ATCC 29213; 24 h).
`CCCCCCCCCC(=O)N[C@@H](Cc1c[nH]c2ccccc12)C(=O)N[C@H](CC(N)=O)C(=O)N[C@@H](CC(=O)O)C(=O)N[C@@H]1C(=O)NCC(=O)N[C@@H](CCCN)C(=O)N[C@@H](CC(=O)O)C(=O)N[C@H](C)C(=O)N[C@@H](CC(=O)O)C(=O)NCC(=O)N[C@H](CO)C(=O)N[C@@H]([C@H](C)CC(=O)O)C(=O)N[C@@H](CC(=O)c2ccccc2N)C(=O)O[C@@H]1C`: “biofilm mass reduction” about 49% (XTT, preformed biofilm; ATCC BAA-1556, MRSA; 2 × MIC, 24 h).
`Cc1ccc(C[C@H](NC(=O)[C@@H](Cc2ccccc2)NC(=O)[C@@H](Cc2c[nH]c3ccccc23)NC(=O)[C@@H](N)CCCN)C(=O)N[C@H](Cc2ccccc2)C(=O)N[C@H](CCCNC(=N)N)C(N)=O)cc1` has an IC50 of over 20 µg/mL (ATCC 33591, methicillin-resistant).
With `COc1c(N2C[C@@H]3CCCN[C@@H]3C2)c(F)cc2c(=O)c(C(=O)O)cn(C3CC3)c12` the MIC50 was 1 µg/mL (≈ 2.49 µM) (broth microdilution; methicillin-resistant isolates).
Under “inhibition zone diameter”, `CCOC(=O)CSC1=N/C(=C\c2ccc(C(C)C)cc2)C(=O)N1c1ccccc1` is recorded as 0 ± 0.06 mm (ATCC 6538; concentration not given).
With `CC(=O)NC[C@H]1CN(c2ccc(N3CCOCC3)c(F)c2)C(=O)O1` the MBC was 32 µM (broth microdilution; vancomycin-resistant VRS11a).
For `COC(=O)[C@H](C)NC(=O)[C@H](Cc1ccccc1)NC(=O)C1OCC2(CCCCC2)CO1`, the residual biofilm was 23 ± 8% (crystal violet staining; 500 µg/mL, 24 h; reference: untreated).
`O=C1/C(=C/c2ccc(O)cc2O)NC(=S)N1c1ccccc1`: “inhibition zone diameter” 12 ± 0.3 mm (ATCC 6538; concentration not given).
`O=C(O)c1ccc(-n2cc(CNc3ccc(Br)c(C(F)(F)F)c3)c(-c3cccc(F)c3)n2)cc1`: “time to kill below detection” at most 10 h (ATCC 700699, MRSA; 4 × MIC).
`C/C(=C\C(=O)OCCCCCCCCC(=O)O)C[C@@H]1OC[C@H](C[C@@H]2O[C@H]2[C@@H](C)[C@H](C)O)[C@@H](O)[C@H]1O`: “wound healing rate” 97.2% (ATCC 43300 MRSA, C57BL/6 mouse skin wound infection; topical, 1 × MIC, 14 days).
`CC(=O)NC[C@H]1CN(c2ccc(N3CCOCC3)c(F)c2)C(=O)O1` has an MIC50 of 0.5 µg/mL (≈ 1.48 µM) (broth microdilution; methicillin-resistant isolates).
Under “log bacterial load”, `CN[C@H](CC(C)C)C(=O)N[C@H]1C(=O)N[C@@H](CC(N)=O)C(=O)N[C@H]2C(=O)N[C@H]3C(=O)N[C@H](C(=O)N[C@H](C(=O)O)c4cc(O)cc(O)c4-c4cc3ccc4O)[C@H](O)c3ccc(c(Cl)c3)Oc3cc2cc(c3O[C@@H]2O[C@H](CO)[C@@H](O)[C@H](O)[C@H]2O[C@H]2C[C@](C)(N)[C@H](O)[C@H](C)O2)Oc2ccc(cc2Cl)[C@H]1O` is recorded as 5.61 log(CFU/g) and 5.45 log(CFU/g) and 6.31 log(CFU/g) and 6.72 log(CFU/g) and 5.54 log(CFU/g) and 5.57 log(CFU/g) (09057, female BALB/c mice, sepsis, lung; intraperitoneal, 20 mg/kg).
With `O=C(NCc1ccccc1)C1COC2(CCCCC2)O1` (stereo not drawn) the residual biofilm was 18 ± 5% (crystal violet staining; 500 µg/mL, 24 h; reference: untreated).
`CN[C@H](CC(C)C)C(=O)N[C@H]1C(=O)N[C@@H](CC(N)=O)C(=O)N[C@H]2C(=O)N[C@H]3C(=O)N[C@H](C(=O)N[C@H](C(=O)O)c4cc(O)cc(O)c4-c4cc3ccc4O)[C@H](O)c3ccc(c(Cl)c3)Oc3cc2cc(c3O[C@@H]2O[C@H](CO)[C@@H](O)[C@H](O)[C@H]2O[C@H]2C[C@](C)(N)[C@H](O)[C@H](C)O2)Oc2ccc(cc2Cl)[C@H]1O` has a bacterial load of 5.39 log CFU and 6.02 log CFU and 3.37 log CFU and 5.09 log CFU and 4.58 log CFU (USA300 LAC, female ICR mice, peritonitis, kidney).
For `O=C(O)c1ccc(-n2cc(CNc3ccc(Cl)c(C(F)(F)F)c3)c(-c3cccc(F)c3)n2)cc1`, “time to kill below detection” read at most 10 h (ATCC 700699, MRSA; 4 × MIC).
With `O=C1C[C@@H](c2ccc(O)cc2)Oc2cc(O)cc(O)c21` the IC50 was over 100 µM (bacterial growth; ATCC 29213; 24 h).
For `NCCCC[C@H](NC(=O)[C@H](Cc1ccccc1)NC(=O)[C@H](CCC(N)=O)NC(=O)[C@H](Cc1ccccc1)NC(=O)[C@H](CCC(N)=O)NC(=O)[C@@H](N)Cc1ccccc1)C(N)=O`, the MBC was 2080 µM (ATCC 25923).
The IC50 of `Cc1ccc(C[C@H](NC(=O)[C@@H](Cc2ccccc2)NC(=O)[C@@H](Cc2c[nH]c3ccccc23)NC(=O)[C@@H](N)CCCN)C(=O)N[C@H](Cc2ccccc2)C(=O)N[C@@H](Cc2ccc(N)cc2)C(N)=O)cc1` is reported as over 20 µg/mL (bacterial growth; ATCC 29213).
Under “inhibition zone diameter”, `CC1(C)S[C@@H]2[C@H](NC(=O)[C@H](N)c3ccc(O)cc3)C(=O)N2[C@H]1C(=O)O` is recorded as 0 mm (CGMCC 1.9; concentration not given, 18 h, 37 °C).
The PI-stained cells of `O=C(O)c1ccc(-n2cc(CNc3cc(Br)cc(C(F)(F)F)c3)c(-c3ccc(F)c(F)c3)n2)cc1` is reported as 32% (membrane permeabilisation, flow cytometry; ATCC 700699; 2 x MIC, 30 min).
For `O=C(O)CN(CCN(CC(=O)O)CC(=O)O)CC(=O)O`, the MBC was over 2000 µM (MRSA 1707; 24 h).
`CO/N=C(\C(=O)N[C@@H]1C(=O)N2C(C(=O)O)=C(COC(C)=O)CS[C@H]12)c1csc(N)n1` — result for “inhibition zone diameter”: 21.5 mm (CGMCC 1.9; concentration not given, 18 h, 37 °C).
`O=c1c(O[C@@H]2O[C@H](CO)[C@H](O)[C@H](O)[C@H]2O)c(-c2ccc(O)c(O)c2)oc2cc(O)cc(O)c12` gave an IC50 of over 100 µM (bacterial growth; ATCC 29213; 24 h).
For `CN[C@H](CC(C)C)C(=O)N[C@H]1C(=O)N[C@@H](CC(N)=O)C(=O)N[C@H]2C(=O)N[C@H]3C(=O)N[C@H](C(=O)N[C@H](C(=O)O)c4cc(O)cc(O)c4-c4cc3ccc4O)[C@H](O)c3ccc(c(Cl)c3)Oc3cc2cc(c3O[C@@H]2O[C@H](CO)[C@@H](O)[C@H](O)[C@H]2O[C@H]2C[C@](C)(N)[C@H](O)[C@H](C)O2)Oc2ccc(cc2Cl)[C@H]1O`, the MBC range was 4 µg/mL (≈ 2.76 µM) (ATCC 29213).
`O=C(O)c1cc(O)c(O)c(O)c1` has an IC50 of over 100 µM (bacterial growth; ATCC 29213; 24 h).
`O=C(O)CN(CCN(CC(=O)O)CC(=O)O)CC(=O)O` has an MBC of 375 µM (MRSA BAA-1707).
For `CN[C@H](CC(C)C)C(=O)N[C@H]1C(=O)N[C@@H](CC(N)=O)C(=O)N[C@H]2C(=O)N[C@H]3C(=O)N[C@H](C(=O)N[C@H](C(=O)O)c4cc(O)cc(O)c4-c4cc3ccc4O)[C@H](O)c3ccc(c(Cl)c3)Oc3cc2cc(c3O[C@@H]2O[C@H](CO)[C@@H](O)[C@H](O)[C@H]2O[C@H]2C[C@](C)(N)[C@H](O)[C@H](C)O2)Oc2ccc(cc2Cl)[C@H]1O`, the MBC was 1.95 µg/mL (ATCC 25904; 20 h).
For `O=C(O)C=Cc1ccc(O)cc1`, the IC50 was over 100 µM (bacterial growth; ATCC 29213; 24 h).

For quick reference, copied from above:
With `O=C1C[C@@H](c2ccc(O)cc2)Oc2cc(O)cc(O)c21` the IC50 was over 100 µM (bacterial growth; ATCC 29213; 24 h).
Under “inhibition zone diameter”, `CCOC(=O)CSC1=N/C(=C\c2ccc(C(C)C)cc2)C(=O)N1c1ccccc1` is recorded as 0 ± 0.06 mm (ATCC 6538; concentration not given).
With `C#CCCCCCCCCCCCC(O)CC(O)CO` (stereo not drawn) the IC50 was 86.4 µg/mL (growth; ATCC 33591 methicillin-resistant).
With `O=C(/C=C/c1ccc(O)c(O)c1)O[C@@H]1C[C@@](O)(C(=O)O)C[C@@H](O)[C@@H]1O` the IC50 was over 100 µM (bacterial growth; ATCC 29213; 24 h).
Under “log bacterial load”, `CN[C@H](CC(C)C)C(=O)N[C@H]1C(=O)N[C@@H](CC(N)=O)C(=O)N[C@H]2C(=O)N[C@H]3C(=O)N[C@H](C(=O)N[C@H](C(=O)O)c4cc(O)cc(O)c4-c4cc3ccc4O)[C@H](O)c3ccc(c(Cl)c3)Oc3cc2cc(c3O[C@@H]2O[C@H](CO)[C@@H](O)[C@H](O)[C@H]2O[C@H]2C[C@](C)(N)[C@H](O)[C@H](C)O2)Oc2ccc(cc2Cl)[C@H]1O` is recorded as 5.61 log(CFU/g) and 5.45 log(CFU/g) and 6.31 log(CFU/g) and 6.72 log(CFU/g) and 5.54 log(CFU/g) and 5.57 log(CFU/g) (09057, female BALB/c mice, sepsis, lung; intraperitoneal, 20 mg/kg).
